Published values gathered from unrelated publications.
Parts stem from different laboratories: compare values within a part only. Changes are numbered by the printed parent chain.

Sample 1
Target: RNA binding protein fox-1 homolog 2, RRM domain, GST-SBP tag (RBFOX2, Homo sapiens, UniProt O43251-10, residues 100-194)
Technique: RNA Bind-n-Seq
Molecule type: RNA
Sample: in vitro
Concentration: 365 nM
Setting: natural RNA segment, single round, ends assumed
Relative to: no-protein control
Direction: higher = stronger binding
All sequences stand within: GGGAGUUCUACAGUCCGACGAUC … UGGAAUUCUCGGGUGCCAA
Construct (chain): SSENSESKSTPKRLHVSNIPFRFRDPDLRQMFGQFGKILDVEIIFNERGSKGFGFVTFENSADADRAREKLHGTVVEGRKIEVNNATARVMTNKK
Sequence	RBNS enrichment (R)
CUCCAAACAUAUAUUCUGUGAGAUAACUGUGCCUGCUACCAAGUGUUAAUCCUGGGAUCGUAUUUUUAUAUCAUAUUCACAUAUUUGUUUUUUUAAUUGGUGUUAGAUGA	0.462
GGCUCUGGUUGGCUGAUCAAGGGCAUGGACCAGGGGCUGCUGGGCAUGUGUCCUGGAGAGAGAAGGAAGAUUAUCAUCCCUCCAUUCCUGGCCUAUGGCGAGAAAGGCUA	1.3
AAGCACUGGUACCCACUGUGGGGCAAACCUGUGCUGCAGGAGGGAGCCUGGCAUACACACUCUGCAUGUUACUUCUUGAGAACUAGACCUGUGUGCCUGUGUUUUCCUGA	2.39
GCCAAGCCCAGGAUGCCAGCUGGCACCUCUGCAAUCUCCCCACCAAAUACACAGAGCCAGCUCUACCCACUCCUAAGAGCAGAGGCCAACUCUAAAGAAAGGUCUCAGGU	0.655
AUUGUGUGUAUGUAUGUUUAAUAUAACAUGACAGGCACGAGGACGCCUGCCUUUUAAGAGGCAGUUCCGUUAAGGGUUUUUGUUUUAAAACUCUUUUUUUUCCUUUCUUU	0.426
AGUAGUGACAAGUCGUGUGUCGGAAUUGGAUUUGAGAACACUCUGAAUGACCCCUGGAGGCCGAGGGGGCAGGCUUCGGGCGUGAACUGAACUCCAGACCCCUCUUUGUG	1.23
ACUUCUAACCUGGCAGAGGCCCUGGCCGGCCCUCCCCCUGCUCUGCUUCUGCGCCUUCUGCGUUUGGACAUAGGACUCUGCAGGGCCGCCCUCUCUAACUGGCCUGGCUC	0.475
CUCCUGGGGCCAUUUCCUAAUGGUACUGUAAGCCAAGCAGCUUUGCUUCUGCCUCUGUUUCCAAGCCCACCCUUUUCCCCUGAGCUCAGGGUUAGGGAUGGGCGCUUUCC	0.24

Sample 2
Target: ABI1, truncated, D143A, DHFR fusion (Arabidopsis thaliana)
Technique: DHFR PCA, deep sequencing
Sample: yeast
Setting: methotrexate growth selection, single substitutions
With: (+)-ABA 0.39 µM
Relative to: wild-type fitted maximum
Direction: higher = stronger binding
Parent: PYL1, truncated, DHFR fusion (Arabidopsis thaliana); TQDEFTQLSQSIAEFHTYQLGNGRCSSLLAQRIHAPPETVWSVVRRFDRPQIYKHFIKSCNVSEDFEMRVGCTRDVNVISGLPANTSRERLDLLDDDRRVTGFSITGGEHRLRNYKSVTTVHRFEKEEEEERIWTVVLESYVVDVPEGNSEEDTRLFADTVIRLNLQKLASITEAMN; partner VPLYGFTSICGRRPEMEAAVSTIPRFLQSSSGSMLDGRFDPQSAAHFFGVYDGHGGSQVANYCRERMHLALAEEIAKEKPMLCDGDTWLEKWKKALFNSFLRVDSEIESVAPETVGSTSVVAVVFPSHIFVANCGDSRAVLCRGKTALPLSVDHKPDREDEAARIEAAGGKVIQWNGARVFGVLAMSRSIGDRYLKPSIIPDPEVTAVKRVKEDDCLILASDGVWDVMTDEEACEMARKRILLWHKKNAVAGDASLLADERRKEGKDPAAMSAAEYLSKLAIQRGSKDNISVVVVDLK
Substitution	relative binding score
R88P	-4.99%
E127V	42.4%
M68F	18.6%
L166Q	14.2%
P50R	-9.06%
D144Q	-10.5%
S11P	55.3%
H110D	45.1%
T17K	18.9%
V44C	-1.69%
I57G	-6.38%
T154L	-14.2%
C72G	-1.56%
W41F	-8.85%
Q51F	-10%
Y18D	-10.9%
D144I	-19%
S140K	-5.51%

Sample 3
Target: Histone acetyltransferase KAT6A, both winged helices, GST fusion (KAT6A, Homo sapiens, UniProt Q92794, residues 1-181)
Technique: protein binding microarray
Molecule type: double-stranded DNA, one strand shown
Sample: in vitro
Concentration: not given
Setting: 8-mer, flanks averaged, mean of 2 arrays, mostly near background
Relative to: not given
Direction: higher = stronger binding
Construct (chain): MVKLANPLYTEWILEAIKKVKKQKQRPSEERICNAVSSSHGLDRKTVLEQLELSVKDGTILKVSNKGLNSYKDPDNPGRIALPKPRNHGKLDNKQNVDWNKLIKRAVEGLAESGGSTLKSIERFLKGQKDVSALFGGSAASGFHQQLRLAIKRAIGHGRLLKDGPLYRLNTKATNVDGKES
Sequence	E-score
ATGGAGAG	-0.232
GCAAACAC	0.0273
ATATAGTC	-0.0631
GCGCCACC	0.141
GCATTGAC	0.0692
GATATGGA	0.029
GCACATCC	-0.00329
CATTCTGA	-0.116
CCTTCTTA	-0.125
ACTCGGCC	0.182
ACGAATAT	-0.0997
ACCACGGG	0.104
AGCGATAC	0.0472
ACAGACGG	0.0529
GGGAATAA	-0.0249
AGATGCAA	-0.204
GCATAAGA	-0.0695

Sample 4
Target: DBP, bZIP domain (human)
Technique: DHFR protein complementation
Sample: yeast
Setting: single substitutions, most at no-binding floor
Relative to: wild-type JUN-FOS pair
Direction: higher = stronger binding
Parent: JUN, bZIP domain (human); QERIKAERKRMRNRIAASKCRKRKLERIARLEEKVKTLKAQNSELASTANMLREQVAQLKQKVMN; partner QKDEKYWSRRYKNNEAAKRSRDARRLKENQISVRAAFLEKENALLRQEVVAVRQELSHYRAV
Substitution	binding fitness
Q41P	-1.55 natural log
A40H	-1.54 natural log
A49P	-1.32 natural log
T48A	-1.27 natural log
S43W	-1.12 natural log
L38W	-1.36 natural log
E33P	-1.51 natural log
T37C	-1.51 natural log
A57E	-1.37 natural log
E33G	-1.47 natural log
L38F	-1.49 natural log
K36L	-1.49 natural log
R53T	-1.45 natural log
S47C	-1.39 natural log
V56A	-1.38 natural log
K34S	-1.4 natural log
T37E	-1.44 natural log
T48Q	-1.23 natural log

Sample 5
Target: CCND1, cyclin fold, Cln2 fusion (human)
Technique: yeast growth competition, sequencing
Sample: yeast
Setting: weak parent motif
Relative to: not given
Direction: higher = stronger binding
Parent: CUX1 docking peptide (human); SRIRRELFIEEIQ; partner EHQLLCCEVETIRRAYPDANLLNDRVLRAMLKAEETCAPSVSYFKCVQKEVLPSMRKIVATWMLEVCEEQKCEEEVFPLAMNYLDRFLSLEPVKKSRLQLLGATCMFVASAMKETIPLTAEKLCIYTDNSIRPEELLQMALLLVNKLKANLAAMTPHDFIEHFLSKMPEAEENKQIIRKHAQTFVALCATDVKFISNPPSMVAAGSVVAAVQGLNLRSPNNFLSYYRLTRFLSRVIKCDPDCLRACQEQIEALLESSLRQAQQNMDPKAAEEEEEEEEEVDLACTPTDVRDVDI
Substitution	normalised enrichment score
SRIRRELFAEEIQ [I9A]	0.155
ARIRRELFIEEIQ [S1A]	0.333
SRIRRELLIEEIQ [F8L]	-0.273
SRIRRELFIEEAQ [I12A]	-0.137
SRIRRELFIEEIA [Q13A]	-0.134
SRIRAELFIEEIQ [R5A]	0.396
SAIRRELFIEEIQ [R2A]	0.388

Excerpt of the above (sample 4):
Substitution	binding fitness
K34S	-1.4 natural log
A49P	-1.32 natural log
Q41P	-1.55 natural log
E33G	-1.47 natural log
R53T	-1.45 natural log
A40H	-1.54 natural log
T48A	-1.27 natural log
S47C	-1.39 natural log
